Measured values pooled from the literature.
Parts stem from different laboratories: compare values within a part only.

Set 1
Target: Transcriptional repressor CTCF (CTCF, Homo sapiens, UniProt P49711, residues 1-727, full length assumed)
Chain of UniProt P49711 (whole entry, looked up): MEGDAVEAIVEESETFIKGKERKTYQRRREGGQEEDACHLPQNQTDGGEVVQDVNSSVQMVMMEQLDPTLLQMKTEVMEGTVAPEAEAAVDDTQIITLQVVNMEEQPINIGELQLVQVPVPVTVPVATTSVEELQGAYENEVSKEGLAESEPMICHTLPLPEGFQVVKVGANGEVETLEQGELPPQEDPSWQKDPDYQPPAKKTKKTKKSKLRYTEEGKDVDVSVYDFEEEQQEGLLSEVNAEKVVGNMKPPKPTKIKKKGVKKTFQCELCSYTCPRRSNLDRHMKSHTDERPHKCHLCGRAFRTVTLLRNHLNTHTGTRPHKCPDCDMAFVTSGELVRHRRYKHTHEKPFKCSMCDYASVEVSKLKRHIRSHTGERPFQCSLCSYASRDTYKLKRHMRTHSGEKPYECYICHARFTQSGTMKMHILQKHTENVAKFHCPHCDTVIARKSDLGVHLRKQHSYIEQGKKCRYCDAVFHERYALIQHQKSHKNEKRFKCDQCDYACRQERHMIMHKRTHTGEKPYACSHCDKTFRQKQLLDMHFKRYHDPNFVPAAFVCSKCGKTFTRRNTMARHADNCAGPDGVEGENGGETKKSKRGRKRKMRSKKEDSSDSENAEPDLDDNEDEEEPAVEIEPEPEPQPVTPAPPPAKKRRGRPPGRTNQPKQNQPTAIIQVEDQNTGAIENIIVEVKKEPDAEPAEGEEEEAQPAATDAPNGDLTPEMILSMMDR
Method: protein-binding microarray
Form: double-stranded DNA, one strand shown
Medium: in vitro
Concentration: not given
Setting: k-mer, scored over probes, only values ≥0.25
Reading: higher = stronger binding
Oligonucleotide | E-score
CGCCGCCC | 0.306
GACATATA | 0.273
ATACTTTA | 0.262
TACAGGTA | 0.26
ATATCATA | 0.315
AAAAGTAA | 0.264
CATATACG | 0.287
GAAATGAA | 0.292
TTAATAAA | 0.312
ATTATTAC | 0.318
TACATCTA | 0.274
ATACTCGC | 0.304
ACAATAAT | 0.298
ATAATTAA | 0.308
TAACAATA | 0.286
AAACATGT | 0.294
CATAGCAC | 0.25
ATATATCG | 0.265
ACATGTAG | 0.261

Set 2
Target: Interferon regulatory factor 7, full length, phosphomimetic (IRF7, Homo sapiens, UniProt Q92985, residues 1-503, S101K/S471D/S472D/S475D/S476D/S477D/S483D/S484D/S487D)
Method: protein-binding microarray
Form: double-stranded DNA, one strand shown
Medium: in vitro
Concentration: 250 nM
Setting: 60-bp whole probe
Together with: salmon DNA 0.4 mg/ml
Reference: random background probes
Reading: higher = stronger binding
Constant ends, left off below: GCCTAGCAC … GTCTTGATTCGCTTGACGCTGCTG
Residues (chain): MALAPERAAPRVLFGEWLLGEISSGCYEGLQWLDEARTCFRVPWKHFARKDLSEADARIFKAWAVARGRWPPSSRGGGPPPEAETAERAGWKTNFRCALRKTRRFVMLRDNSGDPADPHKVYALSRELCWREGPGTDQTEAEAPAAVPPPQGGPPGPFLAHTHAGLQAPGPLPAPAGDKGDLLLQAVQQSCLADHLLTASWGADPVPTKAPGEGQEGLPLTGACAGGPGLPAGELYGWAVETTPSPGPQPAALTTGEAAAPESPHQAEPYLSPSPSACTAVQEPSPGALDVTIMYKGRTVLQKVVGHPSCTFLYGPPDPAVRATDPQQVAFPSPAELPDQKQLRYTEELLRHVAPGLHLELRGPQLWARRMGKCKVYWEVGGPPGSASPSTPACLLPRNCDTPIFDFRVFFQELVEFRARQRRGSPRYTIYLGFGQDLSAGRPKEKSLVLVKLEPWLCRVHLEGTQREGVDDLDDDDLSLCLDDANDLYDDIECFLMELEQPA
Oligonucleotide | log fluorescence [z-score]
TGAGTCTTCCCTTTTAAGTTGTGCTAG | 1.17
TTAGGACTGCTACTTCTTTAGTGCTAG | -0.109
GACGGTTTCGACTGTCGGGACGTGCTA | 4.95
TCACTGTTCTTTTCAGTACTGTGCTAG | 0.644
TCACCTCTCACGCATCTGACTGTGCTA | -0.0702
TCACCTTGCTTTATGTGACTGTGCTAG | 0.338
TTAGGTCGCCTACTGCTTTAGTGCTAG | -0.4
GACGCACTGGGGACTGGGGACGTGCTA | -0.204
GATGATTTCGGGACTGGAGACGTGCTA | -0.212
TTAGGTCTCCTTACCCTTTAGTGCTAG | 0.0387
TTTGAACTGAGTATCGATTAGTGCTAG | 0.31
GACGATATCGGGGCTGGAGACGTGCTA | -0.633
GACGGTATCGACACTGGGGTCGTGCTA | -0.288
TTAGGTGTCGGTATCGGTTAGTGCTAG | 0.606
TTAGGACTGGGGTATTGGTTAGTGCTA | -0.368
CACGAACTGAGACTGGAGACGTGCTAG | -0.0552
TTAGGTTTCGGACTGGGGTAGTGCTAG | 3.5
GACCGACTGGGACTGGGGACGTGCTAG | -0.155

Set 3
Target: Ras GTPase-activating protein-binding protein 1, RRM domain (G3BP1, Homo sapiens, UniProt Q13283)
Chain of UniProt Q13283 (whole entry, looked up): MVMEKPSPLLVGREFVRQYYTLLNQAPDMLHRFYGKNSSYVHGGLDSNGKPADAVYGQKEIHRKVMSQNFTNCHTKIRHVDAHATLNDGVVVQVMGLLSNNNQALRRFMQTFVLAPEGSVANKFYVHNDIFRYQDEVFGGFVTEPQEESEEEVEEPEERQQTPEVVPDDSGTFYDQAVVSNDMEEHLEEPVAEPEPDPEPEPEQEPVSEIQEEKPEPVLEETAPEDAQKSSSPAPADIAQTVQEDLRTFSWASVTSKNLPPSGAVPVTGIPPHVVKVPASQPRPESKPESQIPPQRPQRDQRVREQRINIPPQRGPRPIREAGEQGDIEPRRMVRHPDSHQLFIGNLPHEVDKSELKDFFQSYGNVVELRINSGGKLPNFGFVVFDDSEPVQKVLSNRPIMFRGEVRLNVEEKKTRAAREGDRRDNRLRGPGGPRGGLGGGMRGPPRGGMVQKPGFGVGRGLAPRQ
Method: RNA Bind-n-Seq
Form: RNA
Medium: in vitro
Concentration: 1 µM
Setting: whole 134-nt RNA, ends assumed
Together with: 150 mM KCl
Reference: input library
Reading: higher = stronger binding
Constant ends, left off below: GGGAGUUCUACAGUCCGACGAUC … UGGAAUUCUCGGGUGUCAAGG
Oligonucleotide | log2 enrichment
UGGGAGGUGGAUUUUGUUUAUUUUUUUAGCUCAUUUCCAGGGGUGGGAAUUUUUUUUUAAUAUGUGUCAUGAUUAAAGUUGUUUUUGAAA | 2
GCUGUUCUUGCCUUAGCUGCAUCUUGGACCUCAAGACAAGUAGGAGAACGGACGUUGACCGGUACGGUAAUAGACAGUGGAGAUGGUGUC | -0.329
AAGUCCUGUGCUACACAUCGUAUGUACCGAAUCGGGGCCCCGGCCCCGGGCCCCGGAAAGUAUUAUGUUACGCCGUUCGGAUCUGCACUU | -0.929
UCCUGUGCUACACAUCGUAUGUACCGAAUCGGGGAAAAAGGGGUUUUUUUGGGGAGGGGAAAGUAUUAUGUUACGCCGUUCGGAUCUGCA | 0.829
AAGUCCUGUGCUACACAUCGUAUGUACCGAAUCGUGUGUGUGUGUGUGUGUGUGUGAAAGUAUUAUGUUACGCCGUUCGGAUCUGCACUU | 0.05
UGGGAGGUGGAUUUUGUUUAUUUUUUUAGCUCAUUUCCAGGGGUAGGAAUUUUUUUUUAAUAUGUGUCAUGAAUAAAGUUGUUUUUGAAA | 1.48
CCUCAAGUCCUGUGCUACACAUCGUAUGUACCGAAUCGGAGGUGGAAAAAGGAAAGUAUUAUGUUACGCCGUUCGGAUCUGCACUUCCAG | -0.146
CCUCAAGUCCUGUGCUACACAUCGUAUGUACCGAAUCGGGUGGGGUGGGUGGAAAGUAUUAUGUUACGCCGUUCGGAUCUGCACUUCCAG | 0.346
CCUGUGCUACACAUCGUAUGUACCGAAUCGGGGUUUUUUUGGGGAAAAAAAGGGGAGGGGAAAGUAUUAUGUUACGCCGUUCGGAUCUGC | 0.0818
UUGCGAAAAGGACCAAUUCCAGUGCCGGAACGAGCGCUGCAUCCCCUCUGUGUGGAGAUGCGACGAGGACGAUGACUGCUUAGACCACAG | -0.0615
UUGAUUGAUAUUACAGGCAAGAACCAGGAUGAAUGUGUGAUUGCUUUGCAUGACUGCAAUGGAGAUGUCAACAGAGCUAUCAAUGUUCUU | -0.399
CAAGUCCUGUGCUACACAUCGUAUGUACCGAAUCGGGGAAGGGGAAGGGGAAGGGGAAAGUAUUAUGUUACGCCGUUCGGAUCUGCACUU | 1.45
CUGUGCUACACAUCGUAUGUACCGAAUCGGGCCCCCCCGGGCCCCCCCGGGGCCCCCCCGGGAAAGUAUUAUGUUACGCCGUUCGGAUCU | -0.667
CUGUGCUACACAUCGUAUGUACCGAAUCGGGGCCCCCCGGGGCCCCCCGGGGCCCCCCGGGGAAAGUAUUAUGUUACGCCGUUCGGAUCU | -0.657

Set 4
Target: RING finger protein unkempt homolog, zinc fingers 1-6, GST-SBP tag (UNK, Homo sapiens, UniProt Q9C0B0, residues 30-357)
Method: RNA Bind-n-Seq
Form: RNA
Medium: in vitro
Concentration: not given
Setting: RNA with constant flanks, human and mouse sites, ends assumed
Reference: input RNA pool
Reading: higher = stronger binding
Constant ends, left off below: GGGAGUUCUACAGUCCGACGAUC … CAACAGAGGAUUGAGCAUCA
Target sequence (chain): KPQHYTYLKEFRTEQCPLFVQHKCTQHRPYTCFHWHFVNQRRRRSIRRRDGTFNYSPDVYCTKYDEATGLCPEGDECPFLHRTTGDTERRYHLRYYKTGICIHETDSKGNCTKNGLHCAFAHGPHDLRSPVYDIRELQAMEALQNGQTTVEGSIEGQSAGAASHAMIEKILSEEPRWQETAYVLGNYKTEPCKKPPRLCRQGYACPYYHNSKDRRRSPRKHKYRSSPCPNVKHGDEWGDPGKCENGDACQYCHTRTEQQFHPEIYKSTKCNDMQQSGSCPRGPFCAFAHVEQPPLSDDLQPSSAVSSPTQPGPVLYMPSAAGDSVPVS
Oligonucleotide | bound/input enrichment
UGACUGUUGCAGGGUGGGUGGUUUCCAAACGAGUCUAAGUUAUGAGUGCCCAGACUUCCCUAGCAGAGAAGGGCCUAAAUCCGGGGCUCAUGUGCCAGGAGAGUUAUGCAUGCAGUGGGA | 0.292 ratio
UGGACUGAUCAAUAUGAAGAAGCUUUCACUAAUCAGUACAGUGCAGAUGUACAGAAUGCCCUUGAGCAACAUCUCCAUUCUAACAAGGAAUUUGUGGGCAAACCUGCAAUUUUAGACACU | 0.279 ratio
ACUUCUCCAGAUGGAAGUUCAGAAAAACAAUCCCAAGGAGAAAUUGACUUUUCUUUUGUGUAUCUGGCCCAUCCUCGAGCAGUAAAUGGAUUUUCCUGGCGUAAAACAAGCAAAUAUAUG | 0.193 ratio
GGUGUAGAAUUGGGUUCAGUUUGGCAAAGACUUGGUGCAGAUGUGACAGCAGUUGAAUUUUUAGGUCAUGUAGGUGGAGUUGGAAUUGAUAUGGAGAUAUCUAAAAACUUUCAACGCAUC | 0.86 ratio
CAACUCCAAAGUCCAUGCAGGCUAACCUUAUAUAGUUUAUAUAGGGUUACUUACAGUGGAUGAGGGCUUAUGGGUUGGAGCAGAGGUGACCUUAAAGCAGCCACACUGGAAGGUCUGCAG | 0.131 ratio
ACUUUUGGACUUGAUCAAUUGAAAACCAGAGAAGCCAUUGCCAUGCUCCACAAAGAUGGUAUAGAAUUUGCUUUUAAGGAGCCUAAUCCACAAGGGGAGAGCCAUCCACCUUUAAACUUG | 0.468 ratio
ACCCAGUUCGUGCUGCACCUGCUGGUCGGCUUUGUCUUCGUGGUGAGUGGUCUGGUCAUCAACUUCGUCCAGCUGUGCACGCUGGCGCUCUGGCCGGUCAGCAAGCAGCUCUACCGCCGC | 0.0692 ratio
AUAGGUUGGAAAGUAAUUUUUAACUUCUGGAAUCAUGUUGCCUACUGUUACUCUAAAUAGAAAUAUAGGGAAGGUUUUUUUUUUGUUGUUGUUGUUUUUUUAAAUGUGAAUUUUUGCCUA | 29.8 ratio
GCUGACGAACAUCGGCUCUUGUGUCCCUUUGAACGAGUAGCUUGCUUAAAUAGAAACUUUGGAUGUCCAUUUACCCUGGCACGAAAUAAAGUUGCUGAACAUCUAGAAAUGUGUCCUGCA | 0.818 ratio
UAGCCAAGGUUUUUACAAAGGGGAAAGGAAAAGAAAACAAAAACGCAAGCUCCAUGUGUAUAGCUGAACUUUUAUAUGUUUCUUGCCAGCCCCUCCGCUCCCUUCCAUCUCUAGCCUCUG | 0.239 ratio
AUCCAUGACCUCGCAUGCCACGCUGUCACCAUCUGCAGUCCAGAUUAUUUGCUGGAUGUUUUAGAACUAAGUAAAUACACUUUAACCGCUGUGGAGCUUUGCAGACAAUGCCAGAUGGAU | 0.886 ratio

Some of these lines once more (set 1):
Oligonucleotide | E-score
ATACTTTA | 0.262
TACAGGTA | 0.26
ATATCATA | 0.315
AAAAGTAA | 0.264
CATATACG | 0.287
GAAATGAA | 0.292
